# Published values pooled from the literature.
# Each line is one published result; not all experiments were run side by side. Numbers after ± are the reported error.
# Sequence of UniProt P25090 (whole entry, looked up): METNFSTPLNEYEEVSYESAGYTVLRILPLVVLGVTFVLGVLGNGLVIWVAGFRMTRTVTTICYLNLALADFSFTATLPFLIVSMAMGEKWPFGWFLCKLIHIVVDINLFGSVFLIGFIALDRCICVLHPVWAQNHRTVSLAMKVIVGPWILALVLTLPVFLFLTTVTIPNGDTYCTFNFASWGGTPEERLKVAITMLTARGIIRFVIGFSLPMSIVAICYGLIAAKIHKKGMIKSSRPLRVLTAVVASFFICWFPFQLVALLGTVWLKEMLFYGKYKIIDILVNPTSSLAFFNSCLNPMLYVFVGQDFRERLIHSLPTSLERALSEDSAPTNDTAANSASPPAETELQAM
# Sequence of UniProt O15354 (whole entry, looked up): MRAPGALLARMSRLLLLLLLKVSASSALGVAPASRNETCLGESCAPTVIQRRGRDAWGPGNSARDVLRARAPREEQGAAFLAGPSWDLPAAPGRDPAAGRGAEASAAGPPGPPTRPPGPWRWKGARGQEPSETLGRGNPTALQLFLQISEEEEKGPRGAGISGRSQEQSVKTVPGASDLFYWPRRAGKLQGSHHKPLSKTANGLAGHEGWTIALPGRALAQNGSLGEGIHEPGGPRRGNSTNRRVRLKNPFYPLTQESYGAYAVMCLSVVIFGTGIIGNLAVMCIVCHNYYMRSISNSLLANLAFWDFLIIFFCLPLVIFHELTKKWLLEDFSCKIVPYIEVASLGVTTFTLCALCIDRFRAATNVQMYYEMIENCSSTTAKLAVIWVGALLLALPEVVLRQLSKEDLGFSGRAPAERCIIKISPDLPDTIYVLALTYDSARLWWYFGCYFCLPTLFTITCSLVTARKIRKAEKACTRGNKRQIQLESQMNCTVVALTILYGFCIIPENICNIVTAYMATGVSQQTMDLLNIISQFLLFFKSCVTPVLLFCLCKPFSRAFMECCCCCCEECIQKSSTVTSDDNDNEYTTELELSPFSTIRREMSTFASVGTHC
# Sequence of UniProt Q13255 (whole entry, looked up): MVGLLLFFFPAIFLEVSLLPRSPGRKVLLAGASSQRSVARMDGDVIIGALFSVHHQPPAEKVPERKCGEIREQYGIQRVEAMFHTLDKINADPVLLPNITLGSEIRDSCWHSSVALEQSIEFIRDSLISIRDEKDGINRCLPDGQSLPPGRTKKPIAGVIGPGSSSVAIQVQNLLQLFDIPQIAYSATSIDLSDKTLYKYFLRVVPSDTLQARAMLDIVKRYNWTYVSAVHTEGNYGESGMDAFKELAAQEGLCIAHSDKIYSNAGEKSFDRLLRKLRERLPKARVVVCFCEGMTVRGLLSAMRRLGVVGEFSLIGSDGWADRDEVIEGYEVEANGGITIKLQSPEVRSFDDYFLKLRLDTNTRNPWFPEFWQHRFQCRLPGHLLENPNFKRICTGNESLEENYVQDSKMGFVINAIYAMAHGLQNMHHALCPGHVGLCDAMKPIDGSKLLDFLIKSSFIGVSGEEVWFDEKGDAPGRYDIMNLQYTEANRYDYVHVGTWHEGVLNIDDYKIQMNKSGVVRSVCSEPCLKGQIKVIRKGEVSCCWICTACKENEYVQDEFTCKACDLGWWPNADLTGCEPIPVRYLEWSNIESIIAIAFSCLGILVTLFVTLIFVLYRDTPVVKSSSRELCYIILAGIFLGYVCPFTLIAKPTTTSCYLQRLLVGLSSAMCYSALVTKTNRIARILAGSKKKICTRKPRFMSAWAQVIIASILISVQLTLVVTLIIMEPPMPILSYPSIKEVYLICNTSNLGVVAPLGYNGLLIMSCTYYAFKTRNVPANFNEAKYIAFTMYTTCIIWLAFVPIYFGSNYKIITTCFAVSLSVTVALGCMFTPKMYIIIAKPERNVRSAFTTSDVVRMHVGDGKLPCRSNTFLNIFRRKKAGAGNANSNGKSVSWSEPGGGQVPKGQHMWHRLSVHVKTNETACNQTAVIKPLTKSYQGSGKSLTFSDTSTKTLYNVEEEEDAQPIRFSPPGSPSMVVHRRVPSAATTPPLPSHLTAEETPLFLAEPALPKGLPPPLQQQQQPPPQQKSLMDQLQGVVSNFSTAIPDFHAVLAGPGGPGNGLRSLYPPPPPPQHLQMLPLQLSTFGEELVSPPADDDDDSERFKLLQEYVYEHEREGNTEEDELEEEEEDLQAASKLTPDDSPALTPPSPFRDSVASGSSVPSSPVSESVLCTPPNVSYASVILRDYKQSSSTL
# Sequence of UniProt Q9H228 (whole entry, looked up): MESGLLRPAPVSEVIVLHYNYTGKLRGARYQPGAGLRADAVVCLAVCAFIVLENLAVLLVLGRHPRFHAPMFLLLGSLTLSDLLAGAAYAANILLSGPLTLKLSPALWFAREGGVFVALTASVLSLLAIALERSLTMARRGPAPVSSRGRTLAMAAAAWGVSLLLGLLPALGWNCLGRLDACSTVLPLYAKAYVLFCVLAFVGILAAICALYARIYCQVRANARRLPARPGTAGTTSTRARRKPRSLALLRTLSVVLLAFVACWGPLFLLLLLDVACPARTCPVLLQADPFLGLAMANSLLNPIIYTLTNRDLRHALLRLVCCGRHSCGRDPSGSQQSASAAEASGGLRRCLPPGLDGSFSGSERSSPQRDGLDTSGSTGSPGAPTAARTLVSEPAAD
# Sequence of UniProt Q6RI86 (whole entry, unmodified, looked up): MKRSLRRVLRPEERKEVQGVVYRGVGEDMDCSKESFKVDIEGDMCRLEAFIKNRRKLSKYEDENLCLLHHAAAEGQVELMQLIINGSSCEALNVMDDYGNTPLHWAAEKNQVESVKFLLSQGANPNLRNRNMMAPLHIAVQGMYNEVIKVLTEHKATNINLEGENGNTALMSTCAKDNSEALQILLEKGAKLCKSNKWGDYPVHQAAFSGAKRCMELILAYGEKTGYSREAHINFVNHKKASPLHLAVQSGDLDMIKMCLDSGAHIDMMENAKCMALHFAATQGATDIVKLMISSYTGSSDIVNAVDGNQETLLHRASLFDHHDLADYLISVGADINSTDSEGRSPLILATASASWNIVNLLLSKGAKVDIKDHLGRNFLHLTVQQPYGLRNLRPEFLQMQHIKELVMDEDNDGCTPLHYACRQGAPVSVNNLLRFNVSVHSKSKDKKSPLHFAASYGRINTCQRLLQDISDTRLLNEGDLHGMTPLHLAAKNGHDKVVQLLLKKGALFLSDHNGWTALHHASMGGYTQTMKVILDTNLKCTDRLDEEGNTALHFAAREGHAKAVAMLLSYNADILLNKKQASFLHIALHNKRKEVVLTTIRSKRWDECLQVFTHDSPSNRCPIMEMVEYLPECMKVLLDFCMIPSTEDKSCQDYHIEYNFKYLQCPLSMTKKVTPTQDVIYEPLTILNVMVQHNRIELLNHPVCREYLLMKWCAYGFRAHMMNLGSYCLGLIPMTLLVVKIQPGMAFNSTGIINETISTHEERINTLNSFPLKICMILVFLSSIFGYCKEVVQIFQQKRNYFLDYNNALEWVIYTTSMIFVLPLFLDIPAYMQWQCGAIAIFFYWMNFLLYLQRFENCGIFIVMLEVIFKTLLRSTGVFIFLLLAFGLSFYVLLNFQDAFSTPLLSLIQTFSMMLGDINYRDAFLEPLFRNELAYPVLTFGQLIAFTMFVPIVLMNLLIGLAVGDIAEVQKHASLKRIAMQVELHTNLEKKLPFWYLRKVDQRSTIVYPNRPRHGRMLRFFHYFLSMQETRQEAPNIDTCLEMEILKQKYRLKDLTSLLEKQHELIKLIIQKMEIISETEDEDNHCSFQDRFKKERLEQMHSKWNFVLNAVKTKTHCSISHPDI
# Sequence of UniProt Q9LMA8 (whole entry, looked up): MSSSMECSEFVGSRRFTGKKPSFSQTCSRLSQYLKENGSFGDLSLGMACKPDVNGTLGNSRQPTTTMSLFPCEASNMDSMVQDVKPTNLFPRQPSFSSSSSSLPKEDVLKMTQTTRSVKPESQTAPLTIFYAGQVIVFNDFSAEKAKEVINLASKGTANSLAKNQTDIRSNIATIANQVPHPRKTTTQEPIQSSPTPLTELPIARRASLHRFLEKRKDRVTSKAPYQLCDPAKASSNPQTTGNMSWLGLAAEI
# Sequence of UniProt Q99KQ4 (whole entry, looked up): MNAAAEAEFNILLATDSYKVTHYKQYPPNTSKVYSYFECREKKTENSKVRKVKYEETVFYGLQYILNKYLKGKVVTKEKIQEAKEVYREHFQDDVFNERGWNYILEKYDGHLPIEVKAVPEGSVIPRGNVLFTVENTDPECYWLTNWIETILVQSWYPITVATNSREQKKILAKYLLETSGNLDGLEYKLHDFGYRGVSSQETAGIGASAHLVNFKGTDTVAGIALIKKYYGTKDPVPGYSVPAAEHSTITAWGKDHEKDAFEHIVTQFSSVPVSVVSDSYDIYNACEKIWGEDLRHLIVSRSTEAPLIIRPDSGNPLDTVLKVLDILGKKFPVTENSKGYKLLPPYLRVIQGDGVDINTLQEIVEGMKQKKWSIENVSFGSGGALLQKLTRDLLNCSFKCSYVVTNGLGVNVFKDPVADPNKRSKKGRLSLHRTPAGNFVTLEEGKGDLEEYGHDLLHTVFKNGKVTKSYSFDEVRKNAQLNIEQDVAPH
# Sequence of UniProt O04197 (whole entry, looked up): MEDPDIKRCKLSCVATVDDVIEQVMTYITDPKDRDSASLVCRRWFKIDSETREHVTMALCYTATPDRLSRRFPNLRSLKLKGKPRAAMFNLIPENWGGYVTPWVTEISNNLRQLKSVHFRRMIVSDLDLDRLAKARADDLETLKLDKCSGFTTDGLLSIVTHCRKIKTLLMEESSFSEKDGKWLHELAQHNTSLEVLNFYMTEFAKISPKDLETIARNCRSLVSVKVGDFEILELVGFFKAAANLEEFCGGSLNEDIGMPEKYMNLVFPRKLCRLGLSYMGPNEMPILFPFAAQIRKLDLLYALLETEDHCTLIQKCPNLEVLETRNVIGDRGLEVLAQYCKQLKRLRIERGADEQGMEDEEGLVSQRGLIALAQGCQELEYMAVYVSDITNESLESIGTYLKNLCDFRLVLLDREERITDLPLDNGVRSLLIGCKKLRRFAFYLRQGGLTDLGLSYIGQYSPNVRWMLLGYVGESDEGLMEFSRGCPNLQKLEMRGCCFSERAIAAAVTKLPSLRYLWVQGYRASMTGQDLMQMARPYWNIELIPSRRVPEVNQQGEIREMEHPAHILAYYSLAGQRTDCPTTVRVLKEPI
Structure (SMILES),target,assay,system,conditions,EC50 [nM]
O=C(NCc1ccncc1)Nc1ccc(S(=O)(=O)N2CC3CCC(C2)O3)cc1,"Nampt (Mus musculus, UniProt Q99KQ4)",,,,2750
C[N+](C)(CI)CC(=O)O,TMA lyase,"TMA production, ex vivo","Proteus mirabilis, wild type",,14000
CSCC[C@H](NC(=O)[C@H](CCCNC(=N)N)NC(=O)[C@H](CCCCN)NC(=O)[C@@H](N)Cc1c[nH]c2ccccc12)C(=O)N[C@H](C(=O)N[C@H](CCSC)C(N)=O)C(C)C,"FPR2 (Homo sapiens, UniProt P25090)","binding, competitor",RBL,"4 °C, with: 5 nM WK(FL)YMVm",705
O=C(Nc1ccc(N2C(=O)c3ccc(Cl)cc3C2=O)c(Cl)c1)c1ncccc1Cl,"GRM1 (Homo sapiens, UniProt Q13255)","calcium signal, positive allosteric modulator",,,1860
Cc1cccc(-c2ccc([C@@H]3[C@@H](CO)N4CCCCN(S(=O)(=O)c5ccccc5C(F)(F)F)C[C@@H]34)cc2)c1C,"IDE (Homo sapiens, UniProt P14735)",,,,1
CC[C@H](C)[C@H](NC(=O)[C@H](CCC(=O)O)NC(=O)[C@H](CCC(=O)O)NC(=O)[C@@H](NC(=O)[C@H](C)NC(=O)[C@H](CC(N)=O)NC(=O)[C@H](CC(N)=O)NC(=O)[C@H](CC(=O)O)NC(=O)[C@@H](NC(=O)[C@H](CC(C)C)NC(=O)[C@@H](C)NC(=O)[C@@H](N)[C@@H](C)O)[C@@H](C)CC)[C@@H](C)O)C(=O)N[C@@H](CC(C)C)C(=O)N[C@@H](Cc1ccc(O)cc1)C(=O)O,"GPR37 (Homo sapiens, UniProt O15354)","β-arrestin recruitment, agonist, luciferase",,,19.4
C[N+](C)(CBr)CC(=O)O,TMA lyase,"TMA production, ex vivo","Proteus mirabilis, wild type",,9400
O=C(NC[C@@H](Cc1ccc(F)cc1)N1CCC(O)(C(F)(F)F)CC1)C1(c2ccc(Cl)cc2)CCCC1,"Trpa1 (Rattus norvegicus, UniProt Q6RI86, G878V/M949I)",,rat,,123 ± 6
CCc1nc(-c2ccc(-c3ccc(CCC(N)(CO)COP(=O)(O)O)cc3)cc2)co1 (centres unmarked),"S1PR5 (Homo sapiens, UniProt Q9H228)","β-arrestin recruitment, agonist",,,29.4
O=P(O)(O)O[C@@H]1[C@@H](OP(=O)(O)O)[C@H](OP(=O)(O)O)[C@@H](O)[C@@H](OP(=O)(O)O)[C@H]1OP(=O)(O)O,"COI1/TIFY10A, with JAZ1 (Arabidopsis thaliana, UniProt O04197+Q9LMA8)","binding, cofactor",,"COI1-ASK1 with JAZ1, with: 100 nM 3H-coronatine",27
CCCCOc1nc(N)c2[nH]c(=O)n(CCCN(CCCN3CCOCC3)Cc3cccc(CC(=O)OC)c3)c2n1,"Toll-like receptor 7 (Rattus norvegicus, UniProt A5H2Z9)","reporter gene, agonist",HEK293 NF-kB SEAP reporter,,251

# Repeated from above:
Structure (SMILES),target,assay,system,conditions,EC50 [nM]
CCCCOc1nc(N)c2[nH]c(=O)n(CCCN(CCCN3CCOCC3)Cc3cccc(CC(=O)OC)c3)c2n1,"Toll-like receptor 7 (Rattus norvegicus, UniProt A5H2Z9)","reporter gene, agonist",HEK293 NF-kB SEAP reporter,,251
